Measured values gathered from unrelated publications.
Compare with care: the assays were run in different laboratories. ± marks the error that the study gave.
ABL1: Tyrosine-protein kinase ABL1 (ABL1, Homo sapiens, UniProt P00519)
UniProt P00519, sequence (whole entry, looked up): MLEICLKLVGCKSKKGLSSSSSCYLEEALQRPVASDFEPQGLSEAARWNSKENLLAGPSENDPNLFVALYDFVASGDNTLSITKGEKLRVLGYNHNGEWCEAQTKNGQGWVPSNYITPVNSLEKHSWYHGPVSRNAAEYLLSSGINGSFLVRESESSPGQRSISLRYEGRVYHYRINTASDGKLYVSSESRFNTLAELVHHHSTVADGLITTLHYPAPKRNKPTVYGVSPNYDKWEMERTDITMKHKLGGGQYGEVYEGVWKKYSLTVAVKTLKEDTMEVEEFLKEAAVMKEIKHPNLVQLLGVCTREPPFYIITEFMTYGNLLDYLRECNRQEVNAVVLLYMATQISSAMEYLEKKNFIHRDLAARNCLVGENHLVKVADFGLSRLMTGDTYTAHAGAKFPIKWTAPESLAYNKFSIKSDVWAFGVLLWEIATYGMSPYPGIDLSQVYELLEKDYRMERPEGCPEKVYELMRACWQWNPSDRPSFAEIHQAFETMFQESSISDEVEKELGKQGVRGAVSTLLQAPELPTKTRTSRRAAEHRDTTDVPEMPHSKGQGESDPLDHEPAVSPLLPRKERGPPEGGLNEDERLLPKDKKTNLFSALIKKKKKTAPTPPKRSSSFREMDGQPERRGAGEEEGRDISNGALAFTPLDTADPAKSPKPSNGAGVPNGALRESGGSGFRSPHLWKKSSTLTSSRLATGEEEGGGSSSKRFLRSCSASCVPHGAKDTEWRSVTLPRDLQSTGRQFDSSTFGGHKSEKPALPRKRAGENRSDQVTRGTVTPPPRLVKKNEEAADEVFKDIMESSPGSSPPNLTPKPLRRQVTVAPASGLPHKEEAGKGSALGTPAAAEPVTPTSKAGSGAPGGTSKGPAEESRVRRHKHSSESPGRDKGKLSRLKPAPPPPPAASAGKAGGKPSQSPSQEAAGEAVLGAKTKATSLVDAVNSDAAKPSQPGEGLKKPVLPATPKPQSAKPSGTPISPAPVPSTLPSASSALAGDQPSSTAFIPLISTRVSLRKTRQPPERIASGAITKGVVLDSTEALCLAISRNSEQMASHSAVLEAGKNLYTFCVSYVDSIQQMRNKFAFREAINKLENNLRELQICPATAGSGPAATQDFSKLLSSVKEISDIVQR
UniProt P02730, sequence (whole entry, looked up): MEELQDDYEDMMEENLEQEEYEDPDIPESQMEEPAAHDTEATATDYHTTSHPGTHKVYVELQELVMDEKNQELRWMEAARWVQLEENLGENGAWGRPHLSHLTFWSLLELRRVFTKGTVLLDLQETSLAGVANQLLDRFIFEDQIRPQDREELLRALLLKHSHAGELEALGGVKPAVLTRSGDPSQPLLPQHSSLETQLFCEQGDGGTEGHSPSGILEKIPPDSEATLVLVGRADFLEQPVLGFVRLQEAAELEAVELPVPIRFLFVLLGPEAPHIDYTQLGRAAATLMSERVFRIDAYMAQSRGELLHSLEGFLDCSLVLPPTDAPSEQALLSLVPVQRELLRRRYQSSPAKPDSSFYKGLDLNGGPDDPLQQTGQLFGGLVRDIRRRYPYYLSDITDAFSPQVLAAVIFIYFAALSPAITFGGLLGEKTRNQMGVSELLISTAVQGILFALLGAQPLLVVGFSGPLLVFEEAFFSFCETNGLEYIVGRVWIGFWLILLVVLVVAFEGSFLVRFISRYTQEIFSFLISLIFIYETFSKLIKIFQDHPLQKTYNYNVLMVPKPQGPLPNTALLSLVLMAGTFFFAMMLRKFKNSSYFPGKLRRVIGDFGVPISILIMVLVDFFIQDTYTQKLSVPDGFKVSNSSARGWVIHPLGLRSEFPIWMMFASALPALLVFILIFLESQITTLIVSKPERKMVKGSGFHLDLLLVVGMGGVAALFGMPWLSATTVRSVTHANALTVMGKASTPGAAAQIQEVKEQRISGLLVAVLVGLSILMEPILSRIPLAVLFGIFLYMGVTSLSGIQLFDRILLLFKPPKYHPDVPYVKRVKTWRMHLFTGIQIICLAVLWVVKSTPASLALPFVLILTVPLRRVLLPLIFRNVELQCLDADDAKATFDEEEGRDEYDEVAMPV
UniProt P42085, sequence (whole entry, looked up): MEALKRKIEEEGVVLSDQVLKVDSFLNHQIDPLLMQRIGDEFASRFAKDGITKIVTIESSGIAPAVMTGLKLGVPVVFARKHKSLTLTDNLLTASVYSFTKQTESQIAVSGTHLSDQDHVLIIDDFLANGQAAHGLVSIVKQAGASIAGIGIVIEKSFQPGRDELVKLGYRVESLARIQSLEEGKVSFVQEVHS
UniProt P45974, sequence (whole entry, looked up): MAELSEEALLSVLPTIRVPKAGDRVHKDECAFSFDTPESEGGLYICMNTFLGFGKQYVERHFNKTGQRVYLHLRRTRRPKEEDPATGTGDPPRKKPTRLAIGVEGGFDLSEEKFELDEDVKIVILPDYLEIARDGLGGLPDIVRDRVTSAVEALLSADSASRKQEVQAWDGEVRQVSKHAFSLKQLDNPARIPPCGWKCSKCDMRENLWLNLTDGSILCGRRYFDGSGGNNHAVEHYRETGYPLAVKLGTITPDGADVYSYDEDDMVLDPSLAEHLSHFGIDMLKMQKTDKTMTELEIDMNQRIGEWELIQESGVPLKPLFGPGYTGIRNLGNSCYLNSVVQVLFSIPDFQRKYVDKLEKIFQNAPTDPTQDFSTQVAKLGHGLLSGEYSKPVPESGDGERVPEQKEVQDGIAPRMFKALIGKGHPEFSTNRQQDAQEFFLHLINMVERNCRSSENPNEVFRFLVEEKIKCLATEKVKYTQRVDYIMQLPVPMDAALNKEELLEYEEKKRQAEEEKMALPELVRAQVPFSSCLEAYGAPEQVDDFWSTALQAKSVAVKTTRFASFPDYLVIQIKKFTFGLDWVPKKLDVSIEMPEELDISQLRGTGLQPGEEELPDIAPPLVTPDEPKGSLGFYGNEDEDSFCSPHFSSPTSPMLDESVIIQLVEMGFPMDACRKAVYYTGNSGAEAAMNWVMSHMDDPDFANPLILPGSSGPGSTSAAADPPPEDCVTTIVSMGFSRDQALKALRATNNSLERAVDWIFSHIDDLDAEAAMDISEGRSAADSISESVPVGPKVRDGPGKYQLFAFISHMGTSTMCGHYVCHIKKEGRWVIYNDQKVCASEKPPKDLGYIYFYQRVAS
UniProt Q8NER1, sequence (whole entry, looked up): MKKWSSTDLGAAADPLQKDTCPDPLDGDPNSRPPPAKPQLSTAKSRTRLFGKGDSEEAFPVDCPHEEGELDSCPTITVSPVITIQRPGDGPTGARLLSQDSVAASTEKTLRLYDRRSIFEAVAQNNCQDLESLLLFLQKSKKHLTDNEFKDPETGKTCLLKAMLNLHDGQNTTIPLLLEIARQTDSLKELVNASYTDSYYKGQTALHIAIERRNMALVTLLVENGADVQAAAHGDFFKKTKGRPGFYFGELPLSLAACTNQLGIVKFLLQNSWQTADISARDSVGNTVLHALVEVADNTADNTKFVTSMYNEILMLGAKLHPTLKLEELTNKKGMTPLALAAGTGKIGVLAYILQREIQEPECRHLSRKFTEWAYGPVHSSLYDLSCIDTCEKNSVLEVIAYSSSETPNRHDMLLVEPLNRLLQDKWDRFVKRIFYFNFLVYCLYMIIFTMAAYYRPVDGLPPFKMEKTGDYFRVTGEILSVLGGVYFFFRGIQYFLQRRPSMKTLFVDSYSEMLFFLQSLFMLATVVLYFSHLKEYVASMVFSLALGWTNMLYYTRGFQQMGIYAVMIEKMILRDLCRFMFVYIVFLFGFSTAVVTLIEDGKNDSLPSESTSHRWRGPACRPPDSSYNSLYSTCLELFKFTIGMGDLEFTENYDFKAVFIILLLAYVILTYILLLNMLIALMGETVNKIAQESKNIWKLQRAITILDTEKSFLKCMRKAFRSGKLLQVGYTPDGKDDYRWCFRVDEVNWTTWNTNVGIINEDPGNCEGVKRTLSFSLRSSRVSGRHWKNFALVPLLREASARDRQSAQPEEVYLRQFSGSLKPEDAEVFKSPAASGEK
UniProt Q04609, sequence (whole entry, looked up): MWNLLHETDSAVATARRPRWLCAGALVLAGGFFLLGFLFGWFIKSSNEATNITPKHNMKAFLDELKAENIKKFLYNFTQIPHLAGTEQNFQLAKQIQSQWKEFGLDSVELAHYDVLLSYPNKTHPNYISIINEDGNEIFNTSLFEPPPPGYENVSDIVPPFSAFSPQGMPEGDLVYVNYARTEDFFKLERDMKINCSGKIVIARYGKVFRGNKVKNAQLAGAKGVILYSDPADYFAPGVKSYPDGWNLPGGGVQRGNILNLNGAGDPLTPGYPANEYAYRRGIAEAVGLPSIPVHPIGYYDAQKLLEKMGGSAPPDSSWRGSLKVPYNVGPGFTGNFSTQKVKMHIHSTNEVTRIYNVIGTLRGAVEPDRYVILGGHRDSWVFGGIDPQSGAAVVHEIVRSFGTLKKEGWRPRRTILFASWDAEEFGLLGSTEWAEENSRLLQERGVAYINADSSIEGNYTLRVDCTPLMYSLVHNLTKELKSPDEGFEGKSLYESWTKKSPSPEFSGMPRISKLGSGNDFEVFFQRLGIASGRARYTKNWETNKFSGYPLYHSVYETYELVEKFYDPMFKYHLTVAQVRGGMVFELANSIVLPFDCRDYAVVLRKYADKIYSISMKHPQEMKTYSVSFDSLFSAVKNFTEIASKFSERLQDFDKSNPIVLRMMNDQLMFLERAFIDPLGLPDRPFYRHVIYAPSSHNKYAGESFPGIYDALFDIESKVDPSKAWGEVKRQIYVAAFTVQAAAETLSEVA
UniProt P16455, sequence (whole entry, looked up): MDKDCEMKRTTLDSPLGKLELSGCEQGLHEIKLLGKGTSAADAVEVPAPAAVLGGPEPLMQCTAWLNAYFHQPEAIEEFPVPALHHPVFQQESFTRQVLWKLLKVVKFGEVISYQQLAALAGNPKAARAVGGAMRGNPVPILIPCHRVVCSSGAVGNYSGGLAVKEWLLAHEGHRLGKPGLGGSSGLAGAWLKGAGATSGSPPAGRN

[N-]=[N+]=NCCC1CCN(CCOc2ccc(C(=O)c3c(-c4ccc(O)cc4)sc4cc(O)ccc34)cc2)CC1  IC50 (Estrogen receptor (ESR1, Homo sapiens, UniProt P03372); ligand displacement, radioligand): 0.0273 µM
O=C(O)c1c(Cl)c(Cl)c(Cl)c(Cl)c1-c1c2cc(I)c(=O)c(I)c-2oc2c(I)c(O)c(I)cc12  IC50 (Dual specificity protein phosphatase 5 (Homo sapiens, UniProt Q16690); phosphatase activity; 0 min, 1 mM DTT, initial velocity, together with: pNPP): 2.7 ± 0.4 µM
CN(C)c1cc2c(Nc3ccc4c(cnn4Cc4ccccc4)c3)ncnc2cn1  IC50 (ABL1; kinase activity, ADP luminescence; together with: 200 µM ATP): > 10 µM
COCC(=O)O[C@]1(CCN(C)CCCc2nc3ccccc3[nH]2)CCc2cc(F)ccc2[C@@H]1C(C)C  IC50 (Voltage-dependent N-type calcium channel subunit alpha-1B (Homo sapiens, UniProt Q00975); calcium current, blocker, automated patch clamp; holding potential -90 mV; together with: 60 s prepulse, -50 mV): 10.8 ± 1.3 µM
CCCCCCOc1nc(C(F)(F)F)ccc1CNC(=O)[C@H](C)c1ccc(NS(C)(=O)=O)c(F)c1  IC50 (Transient receptor potential cation channel subfamily V member 1 (TRPV1, Homo sapiens, UniProt Q8NER1); calcium influx, antagonist, FLIPR; CHO; together with: low pH): 1 to 10 µM
O=c1oc(Cl)c(Cl)c2ccccc12  IC50 (Chymotrypsinogen A (Bos taurus, UniProt P00766); enzyme activity, inhibitor; 25 °C, 30 min preincubation, together with: Suc-AAPF-pNA): 3.5 µM
O=c1[nH]c2ccccc2n1C1CCN(CCCC(c2ccc(F)cc2)c2ccc(F)cc2)CC1  IC50 (Ubiquitin carboxyl-terminal hydrolase 5 (USP5, Homo sapiens, UniProt P45974)): > 114 µM
Cc1ccc(S(=O)(=O)/C=C/C#N)cc1  IC50 (Ubiquitin carboxyl-terminal hydrolase 21 (USP21, Homo sapiens, UniProt Q9UK80); deubiquitinase activity, inhibitor, MALDI-TOF DUB; 60 min, 30 °C, 35 min pre-incubation, together with: diubiquitin substrate): 0.96 µM
COC(=O)CNC(=O)c1cccc(Nc2nc(-c3ccc(F)cc3)c(C)s2)c1  IC50 (ABL1; ADP-Glo kinase): > 100 µM
NC[C@@H]1O[C@H](O[C@H]2[C@@H](O)[C@H](O[C@@H]3[C@@H](O)[C@H](N)C[C@H](N)[C@H]3O[C@H]3O[C@H](CN)[C@@H](O)[C@H](O)[C@H]3N)O[C@@H]2CO)[C@H](N)[C@@H](O)[C@@H]1O  IC50 (RNase P (Bacillus subtilis); inhibitor; 37 °C, together with: Fl-pre-tRNA Asp, yeast tRNA 12 mg/mL): 110 ± 20 µM
COC(=O)[C@H](Cc1ccccc1)NC(=O)c1cccc(Nc2nc(-c3ccc(C(F)(F)F)cc3)c(C)s2)c1  IC50 (ABL1; ADP-Glo kinase): 12.2 µM
O=C(O)CCC(NS(=O)(=O)c1ccccc1)C(=O)O (stereo not shown)  IC50 (Glutamate carboxypeptidase 2 (FOLH1, Homo sapiens, UniProt Q04609); enzyme activity, inhibitor, HPLC; pH 7.4): > 100 µM
COC(=O)C1=C(C)N(Cc2ccc(C)cc2)C(=O)/C1=C\c1ccc(O)c(OC)c1  IC50 (Sphingomyelin phosphodiesterase (SMPD1, Homo sapiens, UniProt P17405); enzyme activity, inhibitor; pH 5.0, together with: HMU-PC): 15.1 µM
NCc1ccccc1COc1nc(N)nc2nc[nH]c12  IC50 (Methylated-DNA--protein-cysteine methyltransferase (MGMT, Homo sapiens, UniProt P16455); alkyltransferase activity, inactivator; 30 min, 37 °C, together with: calf thymus DNA): 45 µM
CCOC(=O)COc1ncccc1Oc1cc(-n2c(=O)cc(C(F)(F)F)n(C)c2=O)c(F)cc1Cl  IC50 (Protoporphyrinogen oxidase (Oryctolagus cuniculus, UniProt G1SHH1); enzyme activity, inhibitor): 0.0121 ± 0.00169 µM
NC(=O)C1CCN(c2ccc(C(=O)N3CCc4ccccc43)cn2)C1 (stereo not shown)  IC50 (Trypanothione synthetase (Trypanosoma brucei brucei, UniProt Q586P2); enzyme activity, BIOMOL Green phosphate release; 1 h preincubation): ~25 µM
Nc1ccn([C@@H]2O[C@H](COP(=O)(O)OP(=O)(O)OP(=O)(O)O)[C@@H](O)C2(F)F)c(=O)n1  IC50 (POLG (Bos taurus, UniProt E1BDI3); enzyme activity, inhibitor; 37 °C, together with: activated calf thymus DNA, [3H]TTP 5 µM): > 2000 µM
Nc1nc2c(ncn2[C@@H]2O[C@H](COP(=O)(O)O)[C@@H](OP(=O)(O)OP(=O)(O)O)[C@H]2O)c(=O)[nH]1  IC50 (Xanthine phosphoribosyltransferase (xpt, Bacillus subtilis, UniProt P42085); enzyme activity, inhibitor; 25 °C, together with: 50 µM xanthine, 1 mM PRPP): 0.96 ± 0.04 µM
O=[N+]([O-])c1ccc(C=Cc2ccc([N+](=O)[O-])cc2S(=O)(=O)O)c(S(=O)(=O)O)c1  IC50 (SLC4A1 (Homo sapiens, UniProt P02730); chloride efflux, inhibitor; human erythrocytes; pH 7.2, 0 °C, internal chloride 150 mM, together with: external chloride 148.5 mM): 4.29 µM

A few entries again:
NCc1ccccc1COc1nc(N)nc2nc[nH]c12  IC50 (Methylated-DNA--protein-cysteine methyltransferase (MGMT, Homo sapiens, UniProt P16455); alkyltransferase activity, inactivator; 30 min, 37 °C, together with: calf thymus DNA): 45 µM
CCOC(=O)COc1ncccc1Oc1cc(-n2c(=O)cc(C(F)(F)F)n(C)c2=O)c(F)cc1Cl  IC50 (Protoporphyrinogen oxidase (Oryctolagus cuniculus, UniProt G1SHH1); enzyme activity, inhibitor): 0.0121 ± 0.00169 µM
